Assay results from different studies.
Every numbered part comes from another study and shows a few of its results, in no order.
Chain of UniProt O75582 (whole entry, looked up): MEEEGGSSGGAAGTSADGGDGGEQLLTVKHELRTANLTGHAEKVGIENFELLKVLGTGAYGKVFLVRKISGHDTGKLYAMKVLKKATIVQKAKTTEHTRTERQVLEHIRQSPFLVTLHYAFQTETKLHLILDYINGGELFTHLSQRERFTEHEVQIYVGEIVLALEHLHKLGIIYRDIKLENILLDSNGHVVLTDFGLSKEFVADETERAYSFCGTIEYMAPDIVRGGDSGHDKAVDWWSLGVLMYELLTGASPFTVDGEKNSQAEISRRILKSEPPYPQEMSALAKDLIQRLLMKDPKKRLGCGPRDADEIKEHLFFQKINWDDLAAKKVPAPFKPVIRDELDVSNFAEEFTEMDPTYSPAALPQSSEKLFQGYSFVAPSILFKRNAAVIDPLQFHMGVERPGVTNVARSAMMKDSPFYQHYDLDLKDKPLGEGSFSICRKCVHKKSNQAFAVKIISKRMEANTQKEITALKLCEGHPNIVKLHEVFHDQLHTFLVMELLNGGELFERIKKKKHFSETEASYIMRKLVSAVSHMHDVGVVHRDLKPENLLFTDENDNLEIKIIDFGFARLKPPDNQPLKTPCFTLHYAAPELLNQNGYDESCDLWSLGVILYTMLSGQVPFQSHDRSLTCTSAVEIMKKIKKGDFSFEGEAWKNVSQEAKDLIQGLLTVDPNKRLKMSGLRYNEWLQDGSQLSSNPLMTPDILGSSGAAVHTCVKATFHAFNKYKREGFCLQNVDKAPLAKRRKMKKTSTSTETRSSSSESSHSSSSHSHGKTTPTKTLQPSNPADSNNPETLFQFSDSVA
Chain of UniProt Q8TD08 (whole entry, looked up): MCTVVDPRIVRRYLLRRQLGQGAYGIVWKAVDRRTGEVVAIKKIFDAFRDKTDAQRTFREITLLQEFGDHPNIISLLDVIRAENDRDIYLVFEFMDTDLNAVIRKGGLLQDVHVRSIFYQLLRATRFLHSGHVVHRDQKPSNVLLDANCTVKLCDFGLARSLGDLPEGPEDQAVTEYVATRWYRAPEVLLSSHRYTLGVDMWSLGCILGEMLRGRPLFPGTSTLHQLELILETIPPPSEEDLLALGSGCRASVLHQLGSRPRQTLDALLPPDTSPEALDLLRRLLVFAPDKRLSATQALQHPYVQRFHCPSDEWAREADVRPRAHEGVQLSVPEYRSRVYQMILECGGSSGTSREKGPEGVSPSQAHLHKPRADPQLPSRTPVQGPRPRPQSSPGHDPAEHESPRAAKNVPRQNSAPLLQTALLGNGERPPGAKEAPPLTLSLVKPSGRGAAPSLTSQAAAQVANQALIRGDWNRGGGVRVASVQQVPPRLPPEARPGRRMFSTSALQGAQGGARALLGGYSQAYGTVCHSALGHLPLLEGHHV
Chain of UniProt P15735 (whole entry, looked up): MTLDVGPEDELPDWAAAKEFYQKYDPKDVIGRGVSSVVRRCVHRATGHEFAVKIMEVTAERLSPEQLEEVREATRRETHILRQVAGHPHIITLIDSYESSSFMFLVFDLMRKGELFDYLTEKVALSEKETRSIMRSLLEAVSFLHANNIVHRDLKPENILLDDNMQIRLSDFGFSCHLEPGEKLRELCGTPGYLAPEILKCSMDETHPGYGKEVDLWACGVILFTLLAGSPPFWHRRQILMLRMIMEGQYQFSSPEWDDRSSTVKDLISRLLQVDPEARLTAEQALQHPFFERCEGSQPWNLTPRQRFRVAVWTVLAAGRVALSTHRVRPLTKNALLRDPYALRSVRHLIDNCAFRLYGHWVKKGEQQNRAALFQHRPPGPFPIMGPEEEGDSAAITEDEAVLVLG
Chain of UniProt Q9UKI8 (whole entry, looked up): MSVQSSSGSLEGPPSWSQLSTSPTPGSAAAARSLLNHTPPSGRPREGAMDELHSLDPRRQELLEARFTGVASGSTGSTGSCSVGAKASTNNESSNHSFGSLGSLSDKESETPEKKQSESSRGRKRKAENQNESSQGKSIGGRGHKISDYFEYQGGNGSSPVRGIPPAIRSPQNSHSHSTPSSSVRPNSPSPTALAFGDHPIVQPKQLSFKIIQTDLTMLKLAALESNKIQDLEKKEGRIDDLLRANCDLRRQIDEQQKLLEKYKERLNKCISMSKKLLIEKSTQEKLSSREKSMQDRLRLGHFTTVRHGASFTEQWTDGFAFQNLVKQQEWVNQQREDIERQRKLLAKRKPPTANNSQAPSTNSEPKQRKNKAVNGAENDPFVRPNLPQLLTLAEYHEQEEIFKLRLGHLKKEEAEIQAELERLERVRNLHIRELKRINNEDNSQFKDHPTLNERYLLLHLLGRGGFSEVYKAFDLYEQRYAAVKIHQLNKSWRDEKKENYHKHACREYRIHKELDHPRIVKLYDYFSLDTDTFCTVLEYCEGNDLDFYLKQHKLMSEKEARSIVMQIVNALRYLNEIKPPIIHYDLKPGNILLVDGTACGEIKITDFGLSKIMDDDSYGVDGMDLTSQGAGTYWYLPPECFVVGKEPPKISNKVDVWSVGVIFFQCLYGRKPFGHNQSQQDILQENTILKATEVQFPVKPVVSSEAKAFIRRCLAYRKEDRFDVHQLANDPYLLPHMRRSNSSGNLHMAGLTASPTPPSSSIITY
Chain of UniProt Q9UF33 (whole entry, looked up): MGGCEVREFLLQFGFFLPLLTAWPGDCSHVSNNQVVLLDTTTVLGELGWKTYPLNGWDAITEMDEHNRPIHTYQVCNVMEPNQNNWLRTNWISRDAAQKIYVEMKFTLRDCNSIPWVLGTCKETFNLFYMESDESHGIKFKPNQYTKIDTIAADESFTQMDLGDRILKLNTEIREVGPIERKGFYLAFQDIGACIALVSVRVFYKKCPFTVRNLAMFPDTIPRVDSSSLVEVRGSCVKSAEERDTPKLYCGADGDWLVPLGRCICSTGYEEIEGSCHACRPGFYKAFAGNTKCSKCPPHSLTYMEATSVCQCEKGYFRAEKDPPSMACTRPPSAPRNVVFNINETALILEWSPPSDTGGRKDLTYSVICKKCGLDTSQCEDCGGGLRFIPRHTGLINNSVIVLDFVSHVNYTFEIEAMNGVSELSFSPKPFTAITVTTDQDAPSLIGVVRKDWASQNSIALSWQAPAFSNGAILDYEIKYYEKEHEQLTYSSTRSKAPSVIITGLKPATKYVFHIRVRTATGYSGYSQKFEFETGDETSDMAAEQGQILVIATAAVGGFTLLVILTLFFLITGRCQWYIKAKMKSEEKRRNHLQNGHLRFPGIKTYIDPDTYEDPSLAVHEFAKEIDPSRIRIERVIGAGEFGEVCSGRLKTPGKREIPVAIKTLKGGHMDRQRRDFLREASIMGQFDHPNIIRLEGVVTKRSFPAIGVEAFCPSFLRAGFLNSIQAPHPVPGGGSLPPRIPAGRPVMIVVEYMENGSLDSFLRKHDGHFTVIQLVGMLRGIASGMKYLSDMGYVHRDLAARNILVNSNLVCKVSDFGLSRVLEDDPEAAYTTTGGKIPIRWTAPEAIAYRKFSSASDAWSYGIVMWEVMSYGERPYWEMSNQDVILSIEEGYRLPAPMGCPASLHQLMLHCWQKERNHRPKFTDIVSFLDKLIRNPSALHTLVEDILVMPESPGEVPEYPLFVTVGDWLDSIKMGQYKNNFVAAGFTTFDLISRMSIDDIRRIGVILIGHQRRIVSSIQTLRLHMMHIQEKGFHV

Block 1 — observed: enzyme activity; action: inhibitor; concentration: 0.5 µM; relative to: control
Target: Ribosomal protein S6 kinase alpha-1 (RPS6KA1, Homo sapiens, UniProt Q15418)
Chain of UniProt Q15418 (whole entry, looked up): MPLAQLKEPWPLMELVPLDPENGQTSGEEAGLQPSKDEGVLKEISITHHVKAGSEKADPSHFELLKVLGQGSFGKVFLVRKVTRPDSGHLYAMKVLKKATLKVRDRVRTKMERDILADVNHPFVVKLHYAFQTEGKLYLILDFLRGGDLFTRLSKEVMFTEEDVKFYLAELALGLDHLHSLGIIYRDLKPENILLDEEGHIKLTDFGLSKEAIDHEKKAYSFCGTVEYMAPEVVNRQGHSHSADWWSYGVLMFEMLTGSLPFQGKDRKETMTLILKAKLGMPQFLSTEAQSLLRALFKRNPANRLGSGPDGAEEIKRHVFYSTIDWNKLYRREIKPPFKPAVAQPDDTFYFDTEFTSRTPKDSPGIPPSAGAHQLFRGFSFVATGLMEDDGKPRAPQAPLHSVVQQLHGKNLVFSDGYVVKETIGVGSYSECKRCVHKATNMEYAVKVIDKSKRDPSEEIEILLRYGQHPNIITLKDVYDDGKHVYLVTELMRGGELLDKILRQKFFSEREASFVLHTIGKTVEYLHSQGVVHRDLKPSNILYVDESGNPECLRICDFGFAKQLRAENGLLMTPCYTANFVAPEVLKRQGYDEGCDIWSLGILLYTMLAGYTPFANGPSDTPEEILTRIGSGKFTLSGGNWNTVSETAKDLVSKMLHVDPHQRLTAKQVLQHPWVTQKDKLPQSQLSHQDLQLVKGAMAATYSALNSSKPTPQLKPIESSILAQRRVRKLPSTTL
SMILES	remaining activity
Oc1ccc(-c2nc(-c3ccncc3)c(-c3ccc(F)cc3)[nH]2)cc1	98.1%
Nc1[nH]nc2nc3ccccc3nc12	97.9%
Cn1sc(=O)n(Cc2ccccc2)c1=O	97.6%
Cc1cccc(-c2[nH]c(C(C)(C)C)nc2-c2ccc3c(c2)OCO3)n1	96.4%
CNC(=O)c1cc(Oc2ccc(NC(=O)Nc3ccc(Cl)c(C(F)(F)F)c3)cc2)ccn1	101%
COc1ccc(OC)c2c(=S)c3ccccc3[nH]c12	94.6%
O=C(CCCc1ccc(-c2ccccc2F)cc1)Nc1ccc(O)cc1	102%
CC(C)[C@H](CO)Nc1nc(Nc2cc(N)cc(Cl)c2)c2ncn(C(C)C)c2n1	37.2%
NCCNc1ncc(C(N)=O)c(Nc2cccc(C(F)(F)F)c2)n1	84.3%
Cn1c2ccccc2c2c3c(c4c5ccccc5n(CCC#N)c4c21)CNC3=O	9.7%
O=C(O)c1ccc2c3c1cccc3c(=O)n1c3ccccc3nc21	101%
COc1ccc(C(=O)Nc2sc3c(c2C(N)=O)CCCC3)cc1OC	87%
Nc1ccc2ncnc(NCCc3ccc(Oc4ccccc4)cc3)c2c1	108%
O=c1c2ccccc2[nH]c(=S)n1CCN1CCC(=C(c2ccc(F)cc2)c2ccc(F)cc2)CC1	97.9%
O=C(Nc1cccc(Nc2cc(Nc3cccc(C(F)(F)F)c3)ncn2)c1)C1CC1	95.1%

Block 2 — species: mouse, EL4 tumour-bearing; medium: EL4 tumour; dose: dose not given; relative to: vehicle
SMILES: CC(=O)N[C@@H](Cc1c[nH]c2ccccc12)C(=O)N[C@@H](CCC(=O)C=[N+]=[N-])C(=O)OC(C)C
refers to	log2 fold change
galactonate	1.06
2-hydroxy-3-methylvalerate	0.572
ADP	1.07
phenylacetylglycine	0.285
maltotriose	1.1
hydroxyproline	0.0576
3-hydroxykynurenine	-1.94

Block 3 — species: human; medium: microsomes or S9; concentration: 2 µM; time: 0.5 h
Compound	remaining compound [%]
CCOc1cccc(CNC(=O)c2c(OC)cc(=O)n3c2CCCC3)c1	77.8
O=C(C1CCc2n[nH]c(=O)n2C1)N1CCc2ccc(F)c(F)c2C1 (stereo not drawn)	93.8
COc1cc2c(cc1OC)/C(=N\c1ccccc1)N(Cc1ccccc1F)CC2	3.2
CCOc1ccc(CNC(=O)C(NS(=O)(=O)c2ccc3c(c2)CCCC(=O)N3)C(C)C)cc1 (stereo not drawn)	66
O=c1c2ccccc2nc(NCCCCc2ccccc2)n1-c1ccccc1	0.503
COCCOc1cc(=O)n2c(c1C(=O)N1CCCC1)CCOCC2	> 99

Block 4 — observed: cell-free assay; technique: competition with immobilised ligand; concentration: 1 µM
Compound: COc1cccc(CNC(=O)c2nc3scc(COCc4ccc(C(=O)O)cc4)c3c(=O)[nH]2)c1
target	remaining binding [%]
Ribosomal protein S6 kinase alpha-5, N-terminal kinase domain (RPS6KA5, Homo sapiens, UniProt O75582)	98
Mitogen-activated protein kinase kinase kinase kinase 4 (MAP4K4, Homo sapiens, UniProt O95819)	92.3
Proto-oncogene tyrosine-protein kinase ROS (ROS1, Homo sapiens, UniProt P08922)	100
Ephrin type-A receptor 6 (EPHA6, Homo sapiens, UniProt Q9UF33)	85.4
Phosphatidylinositol 4,5-bisphosphate 3-kinase catalytic subunit alpha isoform (PIK3CA, Homo sapiens, UniProt P42336)	78.8
Phosphorylase b kinase gamma catalytic chain, liver/testis isoform (PHKG2, Homo sapiens, UniProt P15735)	83.8
Mitogen-activated protein kinase 15 (MAPK15, Homo sapiens, UniProt Q8TD08)	82.4
Serine/threonine-protein kinase tousled-like 1 (TLK1, Homo sapiens, UniProt Q9UKI8)	100

Some of these lines once more (block 1):
SMILES	remaining activity
CNC(=O)c1cc(Oc2ccc(NC(=O)Nc3ccc(Cl)c(C(F)(F)F)c3)cc2)ccn1	101%
COc1ccc(OC)c2c(=S)c3ccccc3[nH]c12	94.6%
O=C(CCCc1ccc(-c2ccccc2F)cc1)Nc1ccc(O)cc1	102%
CC(C)[C@H](CO)Nc1nc(Nc2cc(N)cc(Cl)c2)c2ncn(C(C)C)c2n1	37.2%
NCCNc1ncc(C(N)=O)c(Nc2cccc(C(F)(F)F)c2)n1	84.3%
